Measured values from different studies.
± marks the error that the study gave.

Structure (SMILES) | assay | test system | conditions | scale | quantity | value
C[C@H]1CN(C(=O)CC#N)[C@]12CCN(c1ncnc3[nH]ccc13)C2 |  | rat, female | oral, 30 mg/kg repeated, 3 months |  | AUC at NOAEL | 15200 ng·h/mL
O=S(=O)(Nc1ccccc1)c1ccc(NC(=S)Nc2ccccc2)cc1 |  | female mice, small intestine | oral, 5 mg/kg daily 14 days | reference: body weight | relative organ weight | 3.36%
COc1ncccc1-c1cnn2ccc(N3CCN(C(=O)OC(C)C)CC3)nc12 |  | mouse nerve ligation model, plasma | oral, 30 mg/kg, 120 min after last dose, repeat dosing day 4 |  | drug concentration | 5.3 µM
C[C@@H](NC(=O)N1C(=O)[C@H](Cc2ccnc(N)c2)[C@H]1C(=O)O)C1CCCCC1 |  | healthy adult Chinese volunteers | continuous intravenous infusion, 0.3 mg/kg/h, 5-day infusion, CTCAE 5.0 grading |  | incidence of diarrhea | 0%
C=CC(=O)N1CC[C@H](n2nc(C#Cc3cc(OC)cc(OC)c3)c3c(N)ncnc32)C1 |  | human patients | oral, dose not given, QD regimen, adverse drug reaction, added: any phosphate binder |  | AST increased, any grade | 20%
CC(C)C[C@H](NC(=O)[C@H](CCCCN)NC(=O)OCC1c2ccccc2-c2ccccc21)C(=O)N[C@H](C(=O)N[C@@H](Cc1ccccc1)C(=O)N[C@@H](Cc1ccccc1)C(=O)N[C@@H](CCCCN)C(=O)NCC(=O)N[C@@H](Cc1ccccc1)C(=O)N[C@@H](C)C(=O)N[C@@H](Cc1c[nH]c2ccccc12)C(=O)N[C@@H](CC(N)=O)C(=O)N[C@H](C(=O)N[C@H]1CSSC[C@@H](C(=O)N[C@@H](Cc2c[nH]cn2)C(=O)N[C@@H](CCCNC(=N)N)C(=O)N[C@@H](CCCNC(=N)N)C(=O)N[C@@H](C)C(=O)N[C@@H](CC(N)=O)C(N)=O)NC(=O)[C@H](C(C)C)NC(=O)[C@H](CCCNC(=N)N)NC(=O)[C@H](C(C)C)NC(=O)CNC(=O)[C@H](CC(N)=O)NC(=O)[C@H](CCCNC(=N)N)NC(=O)[C@H](Cc2ccc(O)cc2)NC(=O)[C@H](C(C)C)NC1=O)C(C)C)C(C)C | circular dichroism, measured: α-Helix | PBS | 80 µM, pH 7.4 |  | secondary structure content | 5.91%
CC(=O)c1c(C)c2cnc(Nc3ccc(C4CCN(CCS(C)(=O)=O)CC4)cn3)nc2n(C2CCCC2)c1=O |  | human patients, plasma | oral, 75 mg twice daily, day 21 multiple doses, added: fulvestrant |  | Tmax | 1.75 h
COc1ccc(-c2c(-c3ccc(C#N)c(F)c3)nc(N3CCC(N)CC3)n(C)c2=O)cc1F | measured: Pruritus | relapsed/refractory marginal zone lymphoma patients | oral, 60 mg, grade 3 to 4, dose expansion |  | treatment-related adverse event incidence | 0%
N[C@@H]1c2ccccc2OC12CCN(c1cnc3c(N4CCCc5ncccc54)n[nH]c3n1)CC2 |  | patients advanced metastatic solid tumours | oral, 60 mg once daily, pooled RP2D cohorts |  | incidence of any TEAE | 100%
Cn1cc(-c2nc(N[C@@H]3CCCC[C@@H]3N)c(F)c3c2C(=O)NC3)cn1 | measured: Hematuria | patients with relapsed or refractory AML | oral, dose not given, all doses |  | hemorrhagic adverse events | 7%
COc1cc2c(Oc3ccc4[nH]c(C)cc4c3F)ccnc2cc1OCC1(N)CC1 |  | paediatric recurrent refractory sarcoma | 12 mg |  | grade 1 or 2 Appendicitis | 0%
Cc1ccc(F)c2cc(C(=O)N[C@@H]3CCC[C@H](N4CC[C@H](N(C)S(C)(=O)=O)C4)C3)[nH]c12 |  | CD1 mouse | oral, 100 mg/kg |  | AUC(0-inf) | 19900 ng·h/mL
NC(=O)[C@H]1CCN(c2ncnc(N)c2F)C[C@@H]1N1CCC[C@@H](Nc2cc(Cl)cc(C(F)(F)F)c2)C1=O |  | B-cell malignancy patients | oral, 328 mg twice daily, dose |  | grade ≥3 thrombocytopenia | 0%
O=C(O)CCCOc1ccc(F)cc1-c1cc(-c2ccccc2C(F)(F)F)n(-c2ccccc2)n1 |  | Crl:CD(SD) rat, female | intravenous, 25 µg/kg, 14 days post-dose |  | albumin fraction of serum protein | 52.6 ± 3.3%
O=C(C1CCOCC1)N1CC(=O)N2CCc3ccccc3[C@@H]2C1 |  | NMRI mouse, female, S. mansoni-infected, plasma | 200 mg/kg |  | AUC of (R)-enantiomer | 151 µM·h
[2H]C([2H])([18F])[C@]([2H])(N)C(=O)O | PET | athymic nude mice, U-87 MG, muscle | dose not given, 60 min post-injection |  | tissue uptake | 1.36 ± 0.25 %ID/cc
CC(=O)N[C@H]1CC[C@H](NC(=O)CN2CCN(c3nncc(-c4ccc(C)cc4)n3)CC2)CC1 |  | male monkeys |  |  | NOAEL | 30 mg/kg/day
Oc1ccc(Cl)c(-c2ccc(Cl)cc2Cl)c1Cl | enantioselective gas chromatography | racemized sample | column temperature 150 °C |  | enantiomeric fraction | 0.52

Structure (SMILES) | assay | test system | conditions | scale | quantity | value
C[C@@H]1OC(=O)NN=C1c1ccc(-c2ccc(F)cc2)c(C(F)(F)F)c1 | phase I trial, measured: muscle spasms all grades | human patients | 20 mg loading then 1 mg daily |  | patients with adverse event | 0%
CCCCCOc1ccc(-c2ccc(-c3ccc(C(=O)N[C@H]4C[C@@H](O)[C@@H](OCC[N+](C)(C)C)NC(=O)[C@@H]5[C@@H](O)[C@@H](C)CN5C(=O)[C@H]([C@@H](C)O)NC(=O)[C@H]([C@H](O)[C@@H](O)c5ccc(O)cc5)NC(=O)[C@@H]5C[C@@H](O)CN5C(=O)[C@H]([C@@H](C)O)NC4=O)cc3)cc2)cc1 |  | adult ICU patients, mITT, serum | dose not given, day 14 |  | bilirubin | 13.5 µmol/L
C[C@]1(CO)Cc2ncn(-c3ccc(C#N)c(Cl)c3)c2C(=O)O1 |  | human | 80 mg multiple doses, fasted |  | subjects with drug-related headache | 0%
O=C1Nc2cc3[nH]nc(-c4ccncc4)c3cc2CN1Cc1ccccc1 | CTCAE v4.03 | human, relapsed or refractory advanced solid tumours | intravenous, 7.2 mg/kg, pooled schedules |  | patients with QTc prolongation | 0%
NCCCC[C@@H]1NC(=O)[C@@H](Cc2c[nH]c3ccccc23)NC(=O)[C@H](c2ccccc2)NC(=O)[C@@H]2C[C@@H](OC(=O)NCCN)CN2C(=O)[C@H](Cc2ccccc2)NC(=O)[C@H](Cc2ccc(OCc3ccccc3)cc2)NC1=O |  | healthy volunteers, female | 1950 µg twice daily, 0.0 h, post hoc |  | placebo-corrected QTcF change | 5.1 ms
Clc1ccc(-c2ccccc2)cc1 |  | Sprague-Dawley rat, female, serum | inhalation, 35 µg/rat, 24 h |  | albumin | 3 ± 0.2 g/dL
COc1ccnc(C(=O)N[C@H]2COC(=O)[C@H](Cc3ccccc3)[C@@H](OC(=O)C(C)C)[C@H](C)OC2=O)c1OCOC(=O)C(C)C |  | field soil, loamy sand | normalised, Germany |  | DT50 | 48.2 days
C[C@@H]1COCCN1c1cc(-c2ccnn2C)c2ccnc(-c3ccn[nH]3)c2n1 |  | female BALB/c mice | dose not given, 48 h, added: total body irradiation 6 Gy | reference: irradiation alone | white blood cell count | no effect
C=CCNc1c(O)cc2c(O)c1C[C@@H](C)C[C@H](OC)[C@H](O)[C@@H](C)/C=C(\C)[C@H](OC(N)=O)[C@@H](OC)/C=C\C=C(/C)C(=O)N2 |  | unresectable or metastatic STS, GIST, other | intravenous, 150 mg/m^2 |  | patients with fatigue TEAE | 100%
CO[C@H]1C[C@@H]2CC[C@@H](C)[C@@](O)(O2)C(=O)C(=O)N2CCCC[C@H]2C(=O)O[C@H]([C@H](C)C[C@@H]2CC[C@@H](OC(=O)NCCOCCOCCOCCOCCOCCOCCOCCOCCC(=O)N3CCc4cc(Cn5nc(-c6ccc7oc(N)nc7c6)c6c(N)ncnc65)ccc4C3)[C@H](OC)C2)C[C@@H](O)[C@H](C)/C=C(\C)[C@@H](O)[C@@H](OC)C(=O)[C@H](C)C[C@H](C)/C=C/C=C/C=C/1C |  | patients with advanced solid tumours | intravenous, 1.6 mg/3 mg weekly, grade ≥3 |  | incidence of Nausea TRAE | 0%
Cn1cncc1-c1c(F)cncc1NC(=O)c1c(N)nn2cc(F)cnc12 |  | human patients | oral, 80 mg once daily |  | grade ≥3 white cell decrease incidence | 0%
CC(C)[C@@H]1CC[C@@H](C)C[C@@H]1O | acute oral toxicity OECD | Swiss albino mice, serum | oral, 1000 mg/kg |  | blood urea nitrogen | 29.2 ± 4.43 mg/dL
CN[C@H]1CC[C@@H](c2ccc(Cl)c(Cl)c2)c2ccccc21 |  | CD-1 mouse, male, plasma | intraperitoneal, 0.3 mg/kg |  | AUC(0-inf) | 173 ng·h/mL
CC(C)[C@H](O)C(=O)N[C@H]1Cc2ccc3c(c2)[C@]2(C4=C(c5nc(CO)co5)N=C(O4)[C@H](C(C)(C)C)NC1=O)c1cc(F)ccc1N[C@@H]2O3 |  | NSG mice, plasma | intravenous, 10 mg/kg, single dose at MTD, added: paclitaxel 40 mg/kg |  | AUC(0-t) | 1860 ng·h/mL
O=C(Nc1ccccc1)C1CCN(C(=O)Oc2cccnc2)CC1 | Bond-Lader VAS | healthy women | 20 mg | reference: pre-dose baseline, direction not given | change in calmness score | 12
O=S(=O)([O-])C(F)(F)C(F)(F)C(F)(F)C(F)(F)C(F)(F)C(F)(F)C(F)(F)C(F)(F)F.[K+] | measured: GSH, lipid peroxidation | male C57BL/6J mice, liver | concentration not given, alone or with EtOH |  | oxidative stress markers | no effect
CC(C)Nc1ccnc(Nc2cccc(-c3cccnc3)c2)n1 | measured: BUN | mouse, blood | intraperitoneal, 5 mg/kg |  | blood chemistry | 26.7 mg/dL
